Results collected from several papers.
Values joined by “and” are separate records of one study, mostly repeats; a detail may differ. ± marks the error that the study gave.
rep main protease: Replicase polyprotein 1ab, main protease (rep, Severe acute respiratory syndrome coronavirus 2, UniProt P0DTD1)
rep nsp16 with nsp10: Replicase polyprotein 1ab, nsp16 with nsp10 (rep, Severe acute respiratory syndrome coronavirus 2, UniProt P0DTD1)
rep papain-like protease: Replicase polyprotein 1ab, papain-like protease (rep, Severe acute respiratory syndrome coronavirus 2, UniProt P0DTD1)
rep nsp13 helicase: Replicase polyprotein 1ab, nsp13 helicase (rep, Severe acute respiratory syndrome coronavirus 2, UniProt P0DTD1)
rep methyltransferase: Replicase polyprotein 1ab, methyltransferase (rep, Severe acute respiratory syndrome coronavirus 2, UniProt P0DTD1)

`O=C(NCCc1cccc(F)c1)C(c1cccnc1)N(C(=O)C(F)Cl)c1ccc(S(F)(F)(F)(F)F)cc1` (single isomer, unassigned) gave an IC50 of 0.9 µM (rep main protease; enzyme activity, inhibitor).
`N#Cc1ccccc1C[C@@H](N)C(=O)N[C@H](Cc1ccc(Cl)cc1Cl)C(=O)N[C@H](CC(=O)NCCNc1nnc(N)[nH]1)Cc1ccc(F)cc1` has an IC50 of 0.3 µM and 0.6 µM (rep main protease; enzyme activity, inhibitor, fluorescence).
The IC50 of `CC(NC(=O)c1ccccc1[Se][Se]c1ccccc1C(=O)NC(C)C(=O)O)C(=O)O` (stereo not drawn) is reported as 5.44 µM (rep main protease; enzyme activity, inhibitor).
The IC50 of `Cn1cc(C(=O)Nc2ccccn2)c2ccccc21` is reported as 2.18 µM (rep main protease; enzyme activity, inhibitor, FRET).
The IC50 of `NCC(CCC(N)C(=O)O)CC1OC(n2cnc3c(N)ncnc32)C(O)C1O` (stereo not drawn) is reported as 3.4 ± 0.7 µM (rep nsp16 with nsp10; nsp10–nsp16 methyltransferase activity, inhibitor, radiometric; SARS-CoV-2; added: 1.7 µM 3H-SAM, 0.8 µM biotinylated RNA).
The IC50 of `N#Cc1ccccc1C[C@@H](N)C(=O)N[C@H](Cc1ccc(Cl)cc1Cl)C(=O)N[C@H](CC(=O)O)Cc1ccc(F)cc1` is reported as 4 µM (rep main protease; enzyme activity, inhibitor, fluorescence).
For `Cc1oc2nc1C(=O)N[C@](C)(C(=O)NCCc1ccc(N3CCCCC3)cc1)c1nc(c(C)o1)C(=O)N[C@](C)(C(=O)NCCc1ccc(N3CCCCC3)cc1)c1nc(c(C)o1)C(=O)N[C@]2(C)C(=O)NCCc1ccc(N2CCCCC2)cc1`, the IC50 was 15.3 µM (rep main protease; enzyme activity, inhibitor).
For `O=c1c2cccc([N+](=O)[O-])c2[se]n1Cc1ccccc1`, the IC50 was 2.01 µM (rep main protease; enzyme activity, inhibitor, FRET).
`C[C@](C(=O)NC1CCC(F)(F)CC1)(c1cncnc1)N(C(=O)[C@H](F)Cl)c1ccc(OC(F)(F)F)cc1` gave an IC50 of 0.016 µM (rep main protease; enzyme activity, inhibitor).
`C=CC(=O)NC(CC(=C)C)C(=O)N1CC(C(=O)NC(Cc2ccccc2)C(=O)NC)C(c2cccc(C(F)(F)F)c2)C1` (stereo not drawn) has an IC50 of 2 µM (rep main protease).
With `Cc1ccc(OCCN(C)C)cc1C(=O)N[C@H](C)c1cc(-c2cccs2)cc(-c2ccc(CN)s2)c1` the IC50 was 0.0909 µM (rep papain-like protease; enzyme activity, inhibitor, FRET).
For `O=C(CCN(Cc1ccco1)C(=O)c1csc(Nc2ccccc2)n1)NCc1cccc(C(F)(F)F)c1`, the IC50 was < 50 µM (rep main protease; Rev-Nluc reporter, inhibitor).
`O=C(c1cccc(Br)c1)N1CCC(c2ccn3ncc(C(=O)N4CCCCC4)c3c2)CC1` has an IC50 of 75.2 ± 10.6 µM (Replicase polyprotein 1ab, nsp3 macrodomain (rep, Severe acute respiratory syndrome coronavirus 2, UniProt P0DTD1); ADP-ribose binding, inhibitor, fluorescence polarization; Mac1 domain, SARS-CoV-2).
For `Nc1nnc(SC2CC(=O)N(c3cccc4ccccc34)C2=O)s1` (stereo not drawn), the IC50 was 0.64 ± 0.08 µM (rep main protease; enzyme activity, inhibitor; 60 min preincubation).
The IC50 of `CCCCCCCCCCCCCCCc1cc(O)cc(O)c1` is reported as > 100 µM (rep main protease; enzyme activity, inhibitor; with preincubation).
With `Oc1c(Br)cc(Br)c2cccnc12` the IC50 was 6 µM (rep papain-like protease; enzyme activity, inhibitor, fluorescence polarization).
The IC50 of `CN(C)CCCCNC(=O)C[C@H](Cc1ccc(F)cc1)NC(=O)[C@@H](Cc1ccc(Cl)cc1Cl)NC(=O)[C@@H](N)Cc1ccccc1C#N` is reported as 0.8 µM (rep main protease; enzyme activity, inhibitor, fluorescence).
With `CCOC(=O)ONC(=O)c1ccc(C(C)(C)C)cc1` the IC50 was 1.46 µM (rep main protease; enzyme activity, inhibitor, FRET).
`COC(=O)c1cc2c(=O)n3ccccc3nc2n1Cc1ccccc1` has an IC50 of 329 µM (rep main protease; enzyme activity, inhibitor).
The IC50 of `COC(=O)Cn1[se]c2ccccc2c1=O` is reported as 0.167 µM (rep main protease; enzyme activity, inhibitor).
`CCC(C(=O)Nc1ccccc1OC)n1cccc2nc(SCc3ccc(F)cc3)nc1-2` (stereo not drawn) has an IC50 of 8.15 µM (rep papain-like protease; enzyme activity, inhibitor).
The IC50 of `CC(=O)c1ccc(C)cc1OC(=O)c1nc(S(=O)(=O)Cc2ccccc2F)ncc1Cl` is reported as 3.8 ± 0.5 µM (rep main protease; enzyme activity, inhibitor; 5 min).
For `CC1=C(c2ccccc2)C1C(=O)NCc1nc(-c2ccc([N+](=O)[O-])cc2)no1` (stereo not drawn), the IC50 was 19.7 µM (rep main protease; enzyme activity, inhibitor, FRET).
With `O=c1cc(-c2ccc(O)c(O)c2)oc2cc(O[C@@H]3O[C@H](CO)[C@@H](O)[C@H](O)[C@H]3O)cc(O)c12` the IC50 was > 30 µM (rep nsp13 helicase; ATPase activity; no nucleic acid).
The IC50 of `Cc1ccc(OCCN(C)C)cc1C(=O)N[C@H](C)c1cc(-c2cnn(C)c2)cc(-c2cnn(CCN3CCOCC3)c2)c1` is reported as 0.0988 µM (rep papain-like protease; enzyme activity, inhibitor, FRET).
`COc1ccc(-c2cc(=O)c3c(O)c(Oc4ccc(-c5cc(=O)c6c(O)cc(O)cc6o5)cc4)c(OC)cc3o2)cc1` has an IC50 of 26.3 µM (rep papain-like protease; enzyme activity, inhibitor, fluorescence; pH 8).
For `O=C(Nc1ccc(S(=O)(=O)O)cc1)C1=C(C(F)(F)F)NC(=S)NC1c1ccc([N+](=O)[O-])cc1` (stereo not drawn), the IC50 was 55.5 µM (rep main protease; enzyme activity, inhibitor, fluorescence; with preincubation).
`Cc1cc(C)nc(Sc2nc3sccn3c2[N+](=O)[O-])n1` gave an IC50 of 82.3 µM (rep main protease; enzyme activity, inhibitor).
`c1ccc([Se][Se]c2ccccc2)cc1` has an IC50 of 1.87 µM (rep main protease; enzyme activity, inhibitor).
For `N#Cc1ccc(N2N=C(c3ccc(C(=O)O)cc3)CC2C2CCCC2)cc1Cl` (stereo not drawn), the IC50 was 6.31 µM (rep methyltransferase; enzyme activity, inhibitor).
The IC50 of `CCC(C(=O)Nc1ccccc1F)n1c(SCc2ccc(F)cc2)nc2ncccc21` (stereo not drawn) is reported as > 20 µM (rep papain-like protease; enzyme activity, inhibitor).
With `O=C(CCc1ccccc1)NOC(=O)OCc1ccccc1` the IC50 was 0.12 µM (rep main protease; enzyme activity, inhibitor, FRET).
`CN=c1nc(-c2ccccc2)n(-c2ccccc2)s1` gave an IC50 of 1.5 µM (rep methyltransferase; enzyme activity, inhibitor).
`CN1CCN(C(=O)C[C@H](Cc2ccc(F)cc2)NC(=O)[C@@H](Cc2ccc(Cl)cc2Cl)NC(=O)[C@H](N)Cc2ccccc2C#N)CC1` gave an IC50 of 2 µM (rep main protease; enzyme activity, inhibitor, fluorescence).
With `COC(=O)C[C@H](c1ccc(O)cc1)c1c(O)cc(O)c2c1O[C@H](c1cc(O)c(O)c(O)c1)[C@H](OC(=O)c1cc(O)c(O)c(O)c1)C2` the IC50 was 5.95 µM (rep main protease; enzyme activity, inhibitor, FRET).
`Nc1ncnc2c1ncn2[C@@H]1O[C@H](CSCc2ccc(Cl)c(C(=O)O)c2)[C@@H](O)[C@H]1O` has an IC50 of 0.025 µM (rep nsp16 with nsp10; methyltransferase activity, inhibitor; 30 min, 30 °C, added: SAM 10 µM).
`CCOC(=O)ONC(=O)CC(c1ccccc1)c1ccccc1` has an IC50 of 18.8 µM (rep main protease; enzyme activity, inhibitor, FRET).
For `CC(=O)N[C@@H](Cc1ccc(O)cc1)C(=O)N[C@@H](CCCNC(=N)N)C(=O)N[C@@H](Cc1ccccc1)C(=O)N[C@@H](C)C(=O)N[C@@H](CCCNC(=N)N)C(=O)N[C@@H](CC(N)=O)C(=O)N[C@@H](C)C(=O)N[C@H](C(=O)N[C@@H](Cc1ccccc1)C(=O)N[C@@H](C)C(=O)N[C@@H](Cc1ccccc1)C(=O)N[C@@H](Cc1ccc(O)cc1)C(=O)N[C@@H](C)C(=O)N[C@H](C(=O)N[C@@H](CC(=O)O)C(N)=O)[C@@H](C)O)C(C)C`, the IC50 was 2.9 µM (rep main protease; enzyme activity, inhibitor).
`NC(CO)C(O)c1ccc2c(c1)OCO2` (stereo not drawn) has an IC50 of 8.53 ± 0.43 µM (rep main protease; enzyme activity, inhibitor, FRET).
With `O=C1CC(c2ccccc2)Oc2ccccc21` (stereo not drawn) the IC50 was 5.2 ± 1.5 µM (rep nsp13 helicase; helicase unwinding; added: 1 mM DTT).
The IC50 of `CN(C)C(=O)On1nnc2ccccc21` is reported as > 100 µM (rep main protease; enzyme activity, inhibitor).
`COc1cc(C(=O)O)ccc1C1=NN(c2ccc(C#N)c(Cl)c2)C(C)C1` (stereo not drawn) gave an IC50 of 20 µM (rep methyltransferase; enzyme activity, inhibitor).
`CCN(CC)S(=O)(=O)c1ccc2nnn(OCc3cc(-c4ccccc4OC)no3)c2c1` has an IC50 of > 100 µM (rep main protease; enzyme activity, inhibitor).
`O=C(NCCc1cccc(F)c1)C(c1cncnc1)N(C(=O)C(F)Cl)c1ccc(S(F)(F)(F)(F)F)cc1` (stereo not drawn) has an IC50 of 0.21 µM (rep main protease; enzyme activity, inhibitor).
`O=C1C[C@@H](c2ccc(O)c(O)c2)Oc2cc(O)cc(O)c21` gave an IC50 of 17.6 ± 0.9 µM (rep main protease; inhibitor).

For quick reference, copied from above:
For `CC1=C(c2ccccc2)C1C(=O)NCc1nc(-c2ccc([N+](=O)[O-])cc2)no1` (stereo not drawn), the IC50 was 19.7 µM (rep main protease; enzyme activity, inhibitor, FRET).
With `O=c1cc(-c2ccc(O)c(O)c2)oc2cc(O[C@@H]3O[C@H](CO)[C@@H](O)[C@H](O)[C@H]3O)cc(O)c12` the IC50 was > 30 µM (rep nsp13 helicase; ATPase activity; no nucleic acid).
The IC50 of `Cc1ccc(OCCN(C)C)cc1C(=O)N[C@H](C)c1cc(-c2cnn(C)c2)cc(-c2cnn(CCN3CCOCC3)c2)c1` is reported as 0.0988 µM (rep papain-like protease; enzyme activity, inhibitor, FRET).
`COc1ccc(-c2cc(=O)c3c(O)c(Oc4ccc(-c5cc(=O)c6c(O)cc(O)cc6o5)cc4)c(OC)cc3o2)cc1` has an IC50 of 26.3 µM (rep papain-like protease; enzyme activity, inhibitor, fluorescence; pH 8).
For `O=C(Nc1ccc(S(=O)(=O)O)cc1)C1=C(C(F)(F)F)NC(=S)NC1c1ccc([N+](=O)[O-])cc1` (stereo not drawn), the IC50 was 55.5 µM (rep main protease; enzyme activity, inhibitor, fluorescence; with preincubation).
`Cc1cc(C)nc(Sc2nc3sccn3c2[N+](=O)[O-])n1` gave an IC50 of 82.3 µM (rep main protease; enzyme activity, inhibitor).
